Results gathered from unrelated publications.
Parts stem from different laboratories: compare values within a part only.

Set 1
Target: Histone acetyltransferase KAT6A, both winged helices, GST fusion (KAT6A, Homo sapiens, UniProt Q92794, residues 1-181)
Method: protein binding microarray
Form: double-stranded DNA, one strand shown
Medium: in vitro
Concentration: not given
Setting: 8-mer, flanks averaged, mean of 2 arrays, mostly near background
Relative to: not given
Reading: higher = stronger binding
Construct (chain): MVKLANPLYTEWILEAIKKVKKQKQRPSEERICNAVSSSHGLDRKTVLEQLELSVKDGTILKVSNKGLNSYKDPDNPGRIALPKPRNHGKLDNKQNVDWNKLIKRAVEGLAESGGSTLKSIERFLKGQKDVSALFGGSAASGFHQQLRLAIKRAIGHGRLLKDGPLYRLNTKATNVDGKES
For `CCGCCTGC`, the E-score was 0.188.
`ATTAGGTC` has an E-score of -0.103.
`ACCGCGAG` gave an E-score of 0.27.
`GTCATACA` has an E-score of 0.0139.
The E-score of `GAGCGGGC` is reported as 0.289.
`GGAGTGTA` gave an E-score of 0.105.
The E-score of `CGGCTATC` is reported as 0.275.
`ATGGGATA` has an E-score of -0.168.

Set 2
Target: Replicase polyprotein 1ab, main protease (rep, Severe acute respiratory syndrome coronavirus 2, UniProt P0DTD1)
Effect on: enzyme activity
Mode: inhibitor
Concentration: 20 µM
Setting: primary screen
With `COc1oc(=O)c2cc(N)ccc2c1Cl` the inhibition was 45.3%.
`COc1cccc2c1C(=O)c1c(O)c3c(c(O)c1C2=O)C[C@@](O)(/C(CO)=N/NC(=O)CCCCCN1C(=O)C=CC1=O)C[C@@H]3O[C@H]1C[C@H](N)[C@H](O)[C@H](C)O1` gave an inhibition of 101%.
`NS(=O)(=O)c1ccc2c(c1)C1C=CCC1C(c1ccc(Br)cc1)N2` (stereo not drawn) has an inhibition of 27.1%.
`Cc1ccnc2c1CCCC2C(N)=S` (stereo not drawn) has an inhibition of 41.5%.

Set 3
Target: Interferon regulatory factor 5, full length, phosphomimetic (IRF5, Homo sapiens, UniProt Q13568-2, residues 1-514, K96S/S451D/S453D/S456D/S462D)
Method: protein-binding microarray
Form: double-stranded DNA, one strand shown
Medium: in vitro
Concentration: 250 nM
Setting: 60-bp whole probe
Added: salmon DNA 0.4 mg/ml
Relative to: random background probes
Reading: higher = stronger binding
All sequences stand within: GCCTAGCAC … GTCTTGATTCGCTTGACGCTGCTG
For `TTACATTCCAGTTTCGATTAGTGCTAG`, the log fluorescence was 9.93 z-score.
`GACGGACTGCTACTGCTGAGGTGCTAG` has a log fluorescence of -0.653 z-score.
`AGAGAGAGAGAGAGAGAGAGGTGCTAG` has a log fluorescence of 0.129 z-score.
For `CCCTAGTTGTGTCTTGCCATGTGCTAG`, the log fluorescence was -0.219 z-score.
With `GACGGACTCGGGTATCGGGACGTGCTA` the log fluorescence was 0.103 z-score.
The log fluorescence of `GACGGTTTCAGTTTCGAGACGTGCTAG` is reported as 7.89 z-score.
With `TTAAGACTGGACACTGGGTTAGTGCTA` the log fluorescence was -0.7 z-score.
With `TCAGATTTCAGTTCCGATTAGTGCTAG` the log fluorescence was 2.78 z-score.

Set 4
Target: Sal-like protein 4, full length isoform A (SALL4, Homo sapiens, UniProt Q9UJQ4, residues 1-1053)
Sequence of UniProt Q9UJQ4 (whole entry, looked up): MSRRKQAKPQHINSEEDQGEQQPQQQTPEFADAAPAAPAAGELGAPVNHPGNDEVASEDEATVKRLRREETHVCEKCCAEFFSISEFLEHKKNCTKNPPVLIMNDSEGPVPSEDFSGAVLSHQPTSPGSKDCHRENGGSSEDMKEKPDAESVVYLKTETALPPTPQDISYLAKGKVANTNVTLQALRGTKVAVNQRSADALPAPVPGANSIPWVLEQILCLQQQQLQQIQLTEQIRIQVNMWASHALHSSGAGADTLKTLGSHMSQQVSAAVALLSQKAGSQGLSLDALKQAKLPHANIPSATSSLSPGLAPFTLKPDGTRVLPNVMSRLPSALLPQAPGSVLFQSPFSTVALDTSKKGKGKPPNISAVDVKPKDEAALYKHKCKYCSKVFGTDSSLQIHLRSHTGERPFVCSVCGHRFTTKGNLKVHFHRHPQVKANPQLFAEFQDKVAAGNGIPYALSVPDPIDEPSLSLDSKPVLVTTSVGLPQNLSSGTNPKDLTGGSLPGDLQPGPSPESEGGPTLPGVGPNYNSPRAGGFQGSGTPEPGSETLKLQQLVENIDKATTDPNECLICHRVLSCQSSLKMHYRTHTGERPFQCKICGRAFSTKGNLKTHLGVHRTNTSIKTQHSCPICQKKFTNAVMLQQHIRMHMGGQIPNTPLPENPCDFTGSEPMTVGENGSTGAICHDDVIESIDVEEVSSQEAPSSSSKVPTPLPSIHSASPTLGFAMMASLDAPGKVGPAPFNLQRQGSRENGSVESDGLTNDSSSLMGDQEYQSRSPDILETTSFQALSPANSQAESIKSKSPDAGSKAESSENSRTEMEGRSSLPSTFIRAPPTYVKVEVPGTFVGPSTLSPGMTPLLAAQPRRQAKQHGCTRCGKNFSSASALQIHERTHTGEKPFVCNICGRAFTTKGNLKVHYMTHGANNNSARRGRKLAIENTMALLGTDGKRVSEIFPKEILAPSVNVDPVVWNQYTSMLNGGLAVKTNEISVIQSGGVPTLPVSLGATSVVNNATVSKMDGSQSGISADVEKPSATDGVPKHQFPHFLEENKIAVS
Method: universal PBM
Form: double-stranded DNA, one strand shown
Medium: in vitro
Concentration: 600 nM
Setting: 8-mer, flanks averaged, mean of replicates
Reading: higher = stronger binding
`ACATTAGT` gave an E-score of 0.0602.
The E-score of `CATATGGA` is reported as 0.0954.
With `ATCTCAAT` the E-score was 0.244.
The E-score of `GGCTTATA` is reported as 0.194.
`CAGGACAA` gave an E-score of 0.0809.
`CAGCGGAA` has an E-score of -0.161.
For `AGGAGTTC`, the E-score was -0.0449.
`AAAGGGCG` gave an E-score of -0.183.

Set 5
Cell line: HEK-293T
Organism: VSV pseudotyped with SARS-CoV-2 spike
Concentration: 10 µM
Time: 16 h
With `CN(C)C(=O)C(CCN1CCC(O)(c2ccc(Cl)cc2)CC1)(c1ccccc1)c1ccccc1` the pseudovirus infection was 30.4%.
The pseudovirus infection of `CCOc1ccc(Cc2cc([C@@H]3O[C@H](CO)[C@@H](O)[C@H](O)[C@H]3O)ccc2Cl)cc1` is reported as 95%.
For `C[C@H]1O[C@@H](O[C@H]2[C@@H](O)C[C@H](O[C@H]3[C@@H](O)C[C@H](O[C@H]4CC[C@@]5(C)[C@H](CC[C@@H]6[C@@H]5C[C@@H](O)[C@]5(C)[C@@H](C7=CC(=O)OC7)CC[C@]65O)C4)O[C@@H]3C)O[C@@H]2C)C[C@H](O)[C@@H]1O`, the pseudovirus infection was 0.97%.
`NCCCC(O)(P(=O)(O)O)P(=O)(O)O` gave a pseudovirus infection of 106%.

Set 6
Target: Replicase polyprotein 1ab, nsp13 helicase (rep, Severe acute respiratory syndrome coronavirus 2, UniProt P0DTD1)
Mode: inhibitor
Concentration: 20 µM
The inhibition of `O=C(O)CCNc1cc(N2CCc3ccccc3CC2)nc(-c2cccnc2)n1` is reported as 2.04%.
For `O=C1NCC2(CCN(CCc3ccccc3)CC2)O1`, the inhibition was -5.05%.
`COc1cc(C(=O)N2CCC(N3CCN(C)CC3)CC2)ccc1Nc1ncc2c(n1)N(C)c1ccccc1C(=O)N2C` has an inhibition of 9.44%.
`COc1cc2c(cc1OC)C(=O)C(CC1CCN(Cc3ccccc3)CC1)C2` (stereo not drawn) gave an inhibition of 2.34%.
`CCOc1cc(C(=O)Nc2ccc(Cl)c(-c3nc4ccccc4[nH]3)c2)cc(OCC)c1OCC` gave an inhibition of 6.72%.
`NCCCCCNCC12CC3CC(CC(C3)C1)C2` has an inhibition of 8.55%.
The inhibition of `N[C@H](C(=O)O)[C@H](O)c1ccc(O)c(O)c1` is reported as 6.96%.
`Cc1[nH]c(/C=C2\C(=O)Nc3ccc(F)cc32)c(C)c1C(=O)NC[C@H](O)CN1CCOCC1` has an inhibition of 9.08%.
The inhibition of `CC(=O)N[C@H]1CSSC[C@@H](C(N)=O)NC(=O)[C@H](C(C)C)NC(=O)[C@H](C)NC(=O)[C@H](Cc2c[nH]cn2)NC1=O` is reported as -3.07%.
`CN(C)[C@@H](CCOc1cccc2ccccc12)c1ccccc1` has an inhibition of 9.6%.
For `O=C(OC(C(F)(F)F)C(F)(F)F)N1CCN(Cc2cccc(Oc3ccccc3)c2)CC1`, the inhibition was 1.61%.
`Cc1ncc([N+](=O)[O-])n1C` gave an inhibition of 5.57%.
`O=c1cc(N2CCN(c3cccc(C(F)(F)F)c3)CC2)[nH]c(=O)n1C1CCCCC1` has an inhibition of 2.14%.
For `O=C(N[C@@H]1CC[C@@H](c2cccc(F)c2F)CN(CC(F)(F)F)C1=O)N1CCC(n2c(=O)[nH]c3ncccc32)CC1`, the inhibition was 5.18%.
`NCCCC(=O)O` gave an inhibition of -3.32%.
For `CCC(=O)OCC(=O)[C@@]1(OC(=O)CC)[C@@H](C)C[C@H]2[C@@H]3CCC4=CC(=O)C=C[C@]4(C)[C@@]3(Cl)[C@@H](O)C[C@@]21C`, the inhibition was -1.43%.
For `NCC(CS(=O)(=O)O)c1ccc(Cl)cc1` (stereo not drawn), the inhibition was 1.3%.
`CCc1ccc2c(-c3cccc(Cl)c3)nc(=O)n(CC)c2n1` has an inhibition of -1.06%.
For `CC1(C)S[C@@H]2[C@H](/N=C/N3CCCCCC3)C(=O)N2[C@H]1C(=O)O`, the inhibition was 1.76%.
For `O=C(O)Cc1cccc(OCCCN(Cc2cccc(C(F)(F)F)c2Cl)CC(c2ccccc2)c2ccccc2)c1`, the inhibition was 1.98%.
`CC(C)OC(=O)[C@H](C)N[P@](=O)(CO[C@H](C)Cn1cnc2c(N)ncnc21)Oc1ccccc1` has an inhibition of 2.6%.
`Cc1ncc([N+](=O)[O-])n1CC(O)CCl` (stereo not drawn) gave an inhibition of -4.82%.
For `CN(C)C/C=C/C(=O)Nc1cc2c(Nc3ccc(F)c(Cl)c3)ncnc2cc1O[C@H]1CCOC1`, the inhibition was 6.45%.
`CC(=O)CCCCn1c(=O)c2c(ncn2C)n(C)c1=O` has an inhibition of 3.67%.
The inhibition of `CC(=O)N1CCC[C@H]1C(=O)N[C@@H](Cc1cnc[nH]1)C(=O)N[C@@H](CO)C(=O)N[C@@H](CS)C(=O)N[C@@H](CC(N)=O)C(N)=O` is reported as 2.14%.

Some of these lines once more (set 6):
For `CCC(=O)OCC(=O)[C@@]1(OC(=O)CC)[C@@H](C)C[C@H]2[C@@H]3CCC4=CC(=O)C=C[C@]4(C)[C@@]3(Cl)[C@@H](O)C[C@@]21C`, the inhibition was -1.43%.
`NCCCC(=O)O` gave an inhibition of -3.32%.
For `O=C(O)Cc1cccc(OCCCN(Cc2cccc(C(F)(F)F)c2Cl)CC(c2ccccc2)c2ccccc2)c1`, the inhibition was 1.98%.
For `O=C(N[C@@H]1CC[C@@H](c2cccc(F)c2F)CN(CC(F)(F)F)C1=O)N1CCC(n2c(=O)[nH]c3ncccc32)CC1`, the inhibition was 5.18%.
The inhibition of `CC(=O)N1CCC[C@H]1C(=O)N[C@@H](Cc1cnc[nH]1)C(=O)N[C@@H](CO)C(=O)N[C@@H](CS)C(=O)N[C@@H](CC(N)=O)C(N)=O` is reported as 2.14%.
`O=c1cc(N2CCN(c3cccc(C(F)(F)F)c3)CC2)[nH]c(=O)n1C1CCCCC1` has an inhibition of 2.14%.
For `NCC(CS(=O)(=O)O)c1ccc(Cl)cc1` (stereo not drawn), the inhibition was 1.3%.
`CC(C)OC(=O)[C@H](C)N[P@](=O)(CO[C@H](C)Cn1cnc2c(N)ncnc21)Oc1ccccc1` has an inhibition of 2.6%.
`COc1cc2c(cc1OC)C(=O)C(CC1CCN(Cc3ccccc3)CC1)C2` (stereo not drawn) gave an inhibition of 2.34%.
